# Assay results of several laboratories.
# Every numbered part comes from another study and shows a few of its results, in no order. Positions count from the first letter of the parent shown.

# Sample 1 — method: universal PBM; form: double-stranded DNA, one strand shown; matrix: in vitro; concentration: not given; direction: higher = stronger binding
# Target: Sal-like protein 4, full length isoform B (SALL4, Homo sapiens, UniProt Q9UJQ4-2, residues 1-616)
# Setting: 8-mer, flanks averaged, mean of replicates
# Residues (chain): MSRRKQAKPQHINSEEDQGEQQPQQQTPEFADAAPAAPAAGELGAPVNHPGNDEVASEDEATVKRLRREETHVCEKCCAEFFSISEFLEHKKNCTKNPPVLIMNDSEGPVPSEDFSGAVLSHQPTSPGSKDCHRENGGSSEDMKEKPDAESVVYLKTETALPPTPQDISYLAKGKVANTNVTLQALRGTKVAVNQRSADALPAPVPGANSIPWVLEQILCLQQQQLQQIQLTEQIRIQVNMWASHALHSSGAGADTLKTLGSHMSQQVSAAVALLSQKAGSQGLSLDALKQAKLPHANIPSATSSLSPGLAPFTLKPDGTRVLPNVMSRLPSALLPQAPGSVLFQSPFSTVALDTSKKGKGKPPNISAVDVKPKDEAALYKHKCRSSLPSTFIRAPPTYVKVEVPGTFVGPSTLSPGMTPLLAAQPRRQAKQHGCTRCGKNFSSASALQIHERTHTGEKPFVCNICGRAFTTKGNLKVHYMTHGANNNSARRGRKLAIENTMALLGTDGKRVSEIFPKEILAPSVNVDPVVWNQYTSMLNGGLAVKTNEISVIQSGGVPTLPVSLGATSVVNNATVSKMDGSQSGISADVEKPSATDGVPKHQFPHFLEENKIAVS
Oligonucleotide,E-score
AATGCTTC,0.0958
GTAGAATA,0.272
CAAAACAC,0.0588
CCTGTTAC,0.158
CACTCCAG,-0.052
ACGGCACC,-0.308
GTAACGAA,0.164
GACCGATA,0.0114
TAGGCCAA,0.0921
AGGATGCG,-0.0765
AGCTGTTG,0.0501
CCGCACCC,-0.3
ACCACAAC,0.0682
ATGAGAGG,-0.11
CAGTAGTC,-0.147
GCCTCTTA,-0.0738
AAAGCGTT,0.0805
TCAGCTCA,-0.161
TAGTTCAA,0.00125
AAATGATC,0.118
CGACTTCC,-0.162
ATTCGGCA,-0.0525
AGCTTATG,0.127
GCATATAC,0.157
AAATACTC,0.251

# Sample 2 — method: aptamer microarray, sandwich; form: DNA with 2'F-ANA; matrix: in vitro; concentration: 200 nM; with: Cy3 exosite-II aptamer, 400 nM; direction: higher = stronger binding; oligonucleotide: GGTTGGTGTGGTTGG
# Target: Prothrombin, mature alpha-thrombin (F2, Homo sapiens, UniProt P00734)
# Setting: whole 15-mer aptamer, many near background
Modification,mean fluorescence intensity [a.u.]
2'F-ANA at 2 5 6 8 11 12 15,182
2'F-ANA at 5 6 7 8 9 12 14,45
2'F-ANA at 3 4 5 8 9 10 12 13 14 15,55.2
2'F-ANA at 1 5 7 8 9 10 12 13 14,52.5
2'F-ANA at 1 3 4 5 6 7 10 12 13 14 15,46.7
2'F-ANA at 3 4 5 6 7 11 12 13 14 15,60.7
2'F-ANA at 2 6 9 10 11 13 15,92.7
2'F-ANA at 1 3 5 6 7 11 12,97
2'F-ANA at 1 2 5 6 12 14,44.8
2'F-ANA at 1 5 6 8 12,125
2'F-ANA at 3 6 10 11 15,460
2'F-ANA at 1 3 4 5 7 8 9 13 14,46.3
2'F-ANA at 1 2 3 4 7 8 9 10 11 12 14 15,54.1
2'F-ANA at 3 4 5 8 12 13,133
2'F-ANA at 1 4 7 8 10 12 13,59.6
2'F-ANA at 1 5 6 7 11 13 15,48.3
2'F-ANA at 2 3 5 6 7 8 10 11 12 13 14,53.2
2'F-ANA at 1 2 5 7 8 10 11 12 14,45
2'F-ANA at 2 4 5 6 8 10 15,48.8
2'F-ANA at 1 4 6 9 11 12 13 14,50.4

# Sample 3 — method: protein-binding microarray; form: double-stranded DNA, one strand shown; matrix: in vitro; concentration: 0.8 µM; setting: whole 60-bp probe, no competitor; direction: higher = stronger binding; constant ends, left off below: … GTCTTGATTCGCTTGACGCTGCTG
# Target: Centromere-binding protein 1, full length, N-terminal tag (CBF1, Saccharomyces cerevisiae, UniProt P17106, residues 1-351)
# UniProt P17106, sequence (whole entry, looked up): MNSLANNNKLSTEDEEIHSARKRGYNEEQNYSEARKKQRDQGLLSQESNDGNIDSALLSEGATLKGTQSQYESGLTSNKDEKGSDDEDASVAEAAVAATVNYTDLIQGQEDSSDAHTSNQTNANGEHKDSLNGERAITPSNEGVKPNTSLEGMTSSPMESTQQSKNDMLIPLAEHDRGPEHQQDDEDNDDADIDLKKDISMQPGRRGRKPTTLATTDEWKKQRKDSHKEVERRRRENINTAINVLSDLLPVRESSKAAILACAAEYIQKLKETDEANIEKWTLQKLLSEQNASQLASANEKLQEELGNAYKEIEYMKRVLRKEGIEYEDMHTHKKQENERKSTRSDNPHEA
Oligonucleotide,fluorescence intensity
GAAGATATTACTGATCACATGACTGTCTAATTTTAG,14700 a.u.
GAAAGATGAAAAAGAAACGTGGTGGTACTTCGCTAG,589 a.u.
CTATACAAGCTTTGGCACATGTTCGTGATACCTTTC,944 a.u.
CTATACCAATTCAGACTCACGAGAAAAAAAACTTTC,635 a.u.
GAAATGTACAATTGTTTCGTGATAATGTCTCTTTAG,515 a.u.
GAAAAAAAAACCAGCCATCACCGAGATTGTGCTTAG,486 a.u.
GAATCAAGGAATAAAGATATCACGTATACGGGATAG,682 a.u.
CTACCAACCATATTACAAGTCACAAATTGGCAATTC,564 a.u.
GAAATGATGAATGTGCACATGCTGTCGAAACCATAG,883 a.u.
GAAGATGAAGAACACCACCATTTCAGAAATTTTTAG,482 a.u.
GAAGAAGAAGATATGCGTGCGCACAGAATCGATTAG,501 a.u.
GAAAATTCAATGAGCCATGTGAAATAGCGCGGGTAG,541 a.u.
CTAGCCGTGTTTAGTCAGGAGGGTGCACGTTGATTC,631 a.u.
CTACTTAAGCCACACCACGTAATTCTTGAAGACTTC,547 a.u.
GAACGTCATATTCTATCCGTGATTTTTTTGGTTTAG,621 a.u.
CTAATGCGGTGGTATCACATGAAGAGTAAATAATTC,1110 a.u.

# Sample 4 — method: RNA Bind-n-Seq; form: RNA; matrix: in vitro; concentration: 200 nM; setting: whole 134-nt RNA, ends assumed; with: 150 mM LiCl; baseline: input library; direction: higher = stronger binding; library: 7-deaza-guanosine replaces G
# Target: Ras GTPase-activating protein-binding protein 1, full length (G3BP1, Homo sapiens, UniProt Q13283)
# UniProt Q13283, sequence (whole entry, looked up): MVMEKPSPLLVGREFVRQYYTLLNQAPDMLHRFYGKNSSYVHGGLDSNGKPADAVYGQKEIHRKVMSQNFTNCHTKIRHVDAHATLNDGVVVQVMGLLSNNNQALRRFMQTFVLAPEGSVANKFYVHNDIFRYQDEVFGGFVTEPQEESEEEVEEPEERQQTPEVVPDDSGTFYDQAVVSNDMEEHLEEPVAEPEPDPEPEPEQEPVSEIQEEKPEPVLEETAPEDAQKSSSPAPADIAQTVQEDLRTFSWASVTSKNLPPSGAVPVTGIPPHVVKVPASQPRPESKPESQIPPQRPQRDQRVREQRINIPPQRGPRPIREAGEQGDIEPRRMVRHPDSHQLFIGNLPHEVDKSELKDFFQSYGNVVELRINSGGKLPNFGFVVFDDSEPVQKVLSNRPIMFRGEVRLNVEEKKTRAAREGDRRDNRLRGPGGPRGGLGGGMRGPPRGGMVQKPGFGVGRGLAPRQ
# Constant ends, left off below: GGGAGUUCUACAGUCCGACGAUC … UGGAAUUCUCGGGUGUCAAGG
Oligonucleotide,log2 enrichment
CUCAAGUCCUGUGCUACACAUCGUAUGUACCGAAUCGGUUUUUUUGGUGGUGGAAAGUAUUAUGUUACGCCGUUCGGAUCUGCACUUCCA,0.279
AAGUCCUGUGCUACACAUCGUAUGUACCGAAUCGGAGGUUUUUUUGGUUUUUUUGGAAAGUAUUAUGUUACGCCGUUCGGAUCUGCACUU,-0.785
UGUUCCUGUUGAUGAAAAUCUUUUCACUGGAGAGGAUUUGGAUGAACUAGAAGAAGAAUUAAAUACACUUGAUUUAGAAGAAUGACACCA,-1.01
UGCCAUGGACAAUAUUACCAGGCAGAACCAAUUCUACGAUACCCAAGUCAUCAAACAAGAAAACGAGUCAGGCUACGAGAGGAGACCACU,0.792
UCCUGUGCUACACAUCGUAUGUACCGAAUCGGGUUUUUUGGUUUUUUGGGUUUUUUGGGAAAGUAUUAUGUUACGCCGUUCGGAUCUGCA,-0.138
CUGUGCUACACAUCGUAUGUACCGAAUCGGGGAAAAAAGGGAAAAAAGGGGAAAAAAGGGGAAAGUAUUAUGUUACGCCGUUCGGAUCUG,0.354
AGUCCUGUGCUACACAUCGUAUGUACCGAAUCGGGGAAAAGGGAAAAGGGGAAAAGGGAAAGUAUUAUGUUACGCCGUUCGGAUCUGCAC,-0.199
UGGCCCGCCGUCCUGAGGAAGCUGAGGUUCACUGCGGUGCCCAAGAACCACCAGGCGGUCCGGAACCCGUGAGCGGCUGCCAGGGGCUCU,-0.00575
GUCCUGUGCUACACAUCGUAUGUACCGAAUCGGGAAAAAGGGUUUGGGUUUUUUUGGGAAAGUAUUAUGUUACGCCGUUCGGAUCUGCAC,-1.72
UGGGAGGUGGAUUUUGUUUAUUUUUUUAGCUCAUUUCCAAGGGUGGGAAUUUUUUUUUAAUAUGUGUCAUGAAUAAAGUUGUUUUUGAAA,0.178
UCCUGUGCUACACAUCGUAUGUACCGAAUCGGGGUUUUUUUGGGGUUUUUGGGGUGGGGAAAGUAUUAUGUUACGCCGUUCGGAUCUGCA,0.39

# Sample 5 — method: DHFR PCA, deep sequencing; matrix: yeast; with: (+)-ABA 58 µM; baseline: wild-type fitted maximum; direction: higher = stronger binding
# Target: ABI1, truncated, D143A, DHFR fusion (Arabidopsis thaliana)
# Setting: methotrexate growth selection, single substitutions
# Starting sequence: PYL1, truncated, DHFR fusion (Arabidopsis thaliana); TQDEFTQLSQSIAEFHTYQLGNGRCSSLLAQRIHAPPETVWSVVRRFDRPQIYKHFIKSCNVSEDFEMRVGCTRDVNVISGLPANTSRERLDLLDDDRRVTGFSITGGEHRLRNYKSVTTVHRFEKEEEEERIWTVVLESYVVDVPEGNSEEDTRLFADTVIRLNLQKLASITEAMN; partner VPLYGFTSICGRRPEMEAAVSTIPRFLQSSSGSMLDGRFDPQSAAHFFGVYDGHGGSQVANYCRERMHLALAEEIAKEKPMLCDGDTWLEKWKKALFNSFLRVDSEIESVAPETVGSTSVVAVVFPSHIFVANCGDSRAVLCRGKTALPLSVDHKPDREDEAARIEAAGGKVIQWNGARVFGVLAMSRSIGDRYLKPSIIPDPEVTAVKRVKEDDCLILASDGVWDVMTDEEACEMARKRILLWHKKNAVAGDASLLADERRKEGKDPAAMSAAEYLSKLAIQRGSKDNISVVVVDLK
Variant,relative binding score
E129Y,91.6%
I52V,87.5%
E125L,92.2%
N85S,93.5%
V70A,77.4%
R74Q,8.35%
K58F,54.3%
T119L,87.3%
S63Q,85.4%
D48S,47.1%
D95L,46.7%
D92R,22.5%
Q167K,87.9%
N22V,91.6%
D153E,88.1%
S140N,-1.46%
W41R,-17.5%
Q7T,80.1%
E127L,91.4%
Q19S,87%
N149W,4.88%
E152Q,82%
M176P,80.4%
V62N,21.7%
P146M,26.7%

# Sample 6 — target: CCNE2, cyclin fold, Cln2 fusion (human); method: yeast growth competition, sequencing; matrix: yeast; setting: weak parent motif; baseline: not given; direction: higher = stronger binding
# Starting sequence: SAMHD1 docking peptide (human); ASKSRVQLFKDDP
Variant,normalised enrichment score
V6S,-0.394
S4G,-0.101
K10D,-0.233
L8A,-0.104
S2L,0.391
Q7H,0.564
L8P,-0.0991
K3T,-0.159
V6Y,0.163
R5F,0.13
K3P,-0.182
K10W,0.0809
Q7S,-0.147
D11P,0.576
L8F,-0.0659
K3V,-0.0797
V6D,-0.389

# Sample 7 — method: protein binding microarray; form: double-stranded DNA, one strand shown; matrix: in vitro; concentration: not given; baseline: not given; direction: higher = stronger binding
# Target: Histone acetyltransferase KAT6A, winged helix 2, GST fusion (KAT6A, Homo sapiens, UniProt Q92794, residues 85-181)
# Setting: 8-mer, flanks averaged, mean of 2 arrays, mostly near background
# Target sequence (chain): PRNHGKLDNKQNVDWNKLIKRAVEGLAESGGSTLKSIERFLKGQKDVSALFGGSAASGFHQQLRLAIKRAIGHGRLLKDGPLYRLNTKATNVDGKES
Oligonucleotide,E-score
ACATCTAG,-0.098
GGGCTTAA,0.0468
GACCGGAC,0.0417
AAAACTAG,-0.00707
AATGACTC,-0.0946
CAGTATAG,0.0877
ATAAAGTA,0.0211
CGGGTGAC,0.0826
AACGACCC,0.0474
AAATTAGA,0.0422
GGTGAACA,0.0283
GTTCCTCA,0.0655
ACTTACAT,-0.105
TAGTTAGA,-0.0183
CCCCAAGC,0.139
CTGCCTGC,0.035

# Excerpt of the above (sample 4):
Oligonucleotide,log2 enrichment
CUCAAGUCCUGUGCUACACAUCGUAUGUACCGAAUCGGUUUUUUUGGUGGUGGAAAGUAUUAUGUUACGCCGUUCGGAUCUGCACUUCCA,0.279
AAGUCCUGUGCUACACAUCGUAUGUACCGAAUCGGAGGUUUUUUUGGUUUUUUUGGAAAGUAUUAUGUUACGCCGUUCGGAUCUGCACUU,-0.785
UGUUCCUGUUGAUGAAAAUCUUUUCACUGGAGAGGAUUUGGAUGAACUAGAAGAAGAAUUAAAUACACUUGAUUUAGAAGAAUGACACCA,-1.01
UGCCAUGGACAAUAUUACCAGGCAGAACCAAUUCUACGAUACCCAAGUCAUCAAACAAGAAAACGAGUCAGGCUACGAGAGGAGACCACU,0.792
UCCUGUGCUACACAUCGUAUGUACCGAAUCGGGUUUUUUGGUUUUUUGGGUUUUUUGGGAAAGUAUUAUGUUACGCCGUUCGGAUCUGCA,-0.138
CUGUGCUACACAUCGUAUGUACCGAAUCGGGGAAAAAAGGGAAAAAAGGGGAAAAAAGGGGAAAGUAUUAUGUUACGCCGUUCGGAUCUG,0.354
AGUCCUGUGCUACACAUCGUAUGUACCGAAUCGGGGAAAAGGGAAAAGGGGAAAAGGGAAAGUAUUAUGUUACGCCGUUCGGAUCUGCAC,-0.199
UGGCCCGCCGUCCUGAGGAAGCUGAGGUUCACUGCGGUGCCCAAGAACCACCAGGCGGUCCGGAACCCGUGAGCGGCUGCCAGGGGCUCU,-0.00575
GUCCUGUGCUACACAUCGUAUGUACCGAAUCGGGAAAAAGGGUUUGGGUUUUUUUGGGAAAGUAUUAUGUUACGCCGUUCGGAUCUGCAC,-1.72
UGGGAGGUGGAUUUUGUUUAUUUUUUUAGCUCAUUUCCAAGGGUGGGAAUUUUUUUUUAAUAUGUGUCAUGAAUAAAGUUGUUUUUGAAA,0.178
UCCUGUGCUACACAUCGUAUGUACCGAAUCGGGGUUUUUUUGGGGUUUUUGGGGUGGGGAAAGUAUUAUGUUACGCCGUUCGGAUCUGCA,0.39
